Published values gathered from unrelated publications.
A part holds a random share of what one study measured. Positions count from the first letter of the parent shown.

Block 1 — target: CCND1, cyclin fold, Cln2 fusion (human); technique: yeast growth competition, sequencing; medium: yeast; notes: strong parent motif; baseline: not given; reading: higher = stronger binding; measurement: normalised enrichment score
Parent: viral docking peptide; KGVKRKLFAEDSS; partner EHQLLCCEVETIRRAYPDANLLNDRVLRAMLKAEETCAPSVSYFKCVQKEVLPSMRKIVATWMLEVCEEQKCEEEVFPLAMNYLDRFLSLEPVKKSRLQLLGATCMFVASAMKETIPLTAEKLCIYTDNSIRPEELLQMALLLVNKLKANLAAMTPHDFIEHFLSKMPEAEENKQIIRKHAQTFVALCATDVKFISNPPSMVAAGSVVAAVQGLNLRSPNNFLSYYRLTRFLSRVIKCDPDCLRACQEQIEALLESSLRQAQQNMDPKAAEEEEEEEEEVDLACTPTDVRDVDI
K4N: 0.959
K6W: 0.184
E10C: 0.336
D11F: 0.628
L7K: 0.36
A9I: 1.01
D11Q: 0.471
E10A: 0.571
L7M: 0.334
E10N: 0.466
R5Y: 0.0737
A9P: 1.11
D11A: 0.771

Block 2 — target: FOSL2, bZIP domain (human); technique: DHFR protein complementation; medium: yeast; baseline: wild-type JUN-FOS pair; reading: higher = stronger binding; measurement: binding fitness
Notes: single substitutions, most at no-binding floor
Parent: JUN, bZIP domain (human); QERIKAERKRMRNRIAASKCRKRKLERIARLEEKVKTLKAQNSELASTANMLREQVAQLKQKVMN; partner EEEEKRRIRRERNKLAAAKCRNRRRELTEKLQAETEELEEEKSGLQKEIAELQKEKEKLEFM
L52W: -0.942 natural log
Q55V: 0.00574 natural log
I28W: -0.0317 natural log
M51K: 0.0817 natural log
V35E: -1.05 natural log
T37E: 0.127 natural log
Q55T: -0.00477 natural log
E44D: -0.146 natural log

Block 3 — technique: protein binding microarray; molecule type: double-stranded DNA, one strand shown; medium: in vitro; concentration: not given; baseline: not given; reading: higher = stronger binding; measurement: E-score
Target: Histone acetyltransferase KAT6A, both winged helices, GST fusion (KAT6A, Homo sapiens, UniProt Q92794, residues 1-181)
Notes: 8-mer, flanks averaged, mean of 2 arrays, mostly near background
Target sequence (chain): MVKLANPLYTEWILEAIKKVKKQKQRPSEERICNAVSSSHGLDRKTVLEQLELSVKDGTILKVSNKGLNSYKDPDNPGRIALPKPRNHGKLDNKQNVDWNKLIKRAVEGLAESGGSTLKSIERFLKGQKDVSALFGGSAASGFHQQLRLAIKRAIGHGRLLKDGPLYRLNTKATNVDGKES
CGTCTAAG: 0.0775
AACACAGC: -0.0393
ACCCAAGC: -0.0555
CGAATGGA: -0.25
AATCCGGA: 0.0479
CAATAGAG: -0.166
CGCTTGGC: 0.123
AAGTTAGG: -0.089

Block 4 — target: inorganic phosphate, free oxyanion; technique: microfluidic competitive inhibition; medium: in vitro, cell-free expressed; concentration: not given; reading: lower = stronger binding; measurement: phosphate dissociation constant
Notes: derived from inhibition constants, unchanged parent 615000 nM
Parent: PafA, mature enzyme, eGFP fusion (Elizabethkingia meningoseptica, UniProt Q9KJX5); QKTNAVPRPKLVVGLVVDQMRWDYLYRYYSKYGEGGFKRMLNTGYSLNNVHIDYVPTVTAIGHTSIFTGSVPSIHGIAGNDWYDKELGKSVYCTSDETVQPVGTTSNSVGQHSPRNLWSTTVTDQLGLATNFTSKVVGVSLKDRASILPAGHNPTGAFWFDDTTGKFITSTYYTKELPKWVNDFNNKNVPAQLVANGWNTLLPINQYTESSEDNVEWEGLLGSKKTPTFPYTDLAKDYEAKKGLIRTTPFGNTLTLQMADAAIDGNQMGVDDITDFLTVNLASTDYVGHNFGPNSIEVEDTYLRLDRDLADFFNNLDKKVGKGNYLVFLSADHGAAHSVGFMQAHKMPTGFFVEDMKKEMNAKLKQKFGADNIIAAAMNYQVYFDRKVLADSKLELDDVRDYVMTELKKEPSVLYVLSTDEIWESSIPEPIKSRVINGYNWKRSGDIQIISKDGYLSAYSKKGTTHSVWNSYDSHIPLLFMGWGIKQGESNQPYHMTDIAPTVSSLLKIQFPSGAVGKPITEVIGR
T120G: 442 µM
N470G: 443 µM
A370V: 727 µM
D237G: 418 µM
F313G: 451 µM
D213V: 208 µM
S426V: 599 µM
T349G: 526 µM
V137A: 571 µM
T43G: 502 µM
V270A: 655 µM
F352V: 679 µM
D317G: 582 µM
R307G: 580 µM

Repeated from above (block 3):
AACACAGC: -0.0393
ACCCAAGC: -0.0555
CGAATGGA: -0.25
AATCCGGA: 0.0479
